Results gathered from unrelated publications.
Lines come from different studies, so protocols differ.

`CCCC[C@H](NC(=O)[C@@H](NC(=O)[C@H](CC(=O)O)NC(=O)[C@H](CCC(N)=O)NC(=O)[C@H](CC(C)C)NC(=O)[C@H](CC(C)C)NC(=O)[C@H](CCCN)NC(=O)[C@H](CCCNC(=N)N)NC(=O)[C@H](C)NC(=O)[C@H](CO)NC(=O)[C@H](CC(C)C)NC(=O)[C@H](CCC(N)=O)NC(=O)[C@H](CC)NC(=O)[C@H](CC(C)C)NC(=O)[C@@H](NC(=O)[C@H](CCCN)NC(=O)[C@H](CCCNC(=N)N)NC(=O)[C@H](Cc1ccc(O)cc1)NC(=O)[C@H](CO)NC(=O)[C@H](CCC(N)=O)NC(=O)[C@@H](NC(=O)[C@H](Cc1ccccc1)NC(=O)[C@@H](NC(=O)[C@H](C)NC(=O)[C@H](CC(=O)O)NC(=O)[C@@H](C)NC(=O)CCc1ccc(O)cc1)[C@@H](C)CC)[C@@H](C)O)C(C)C)[C@@H](C)CC)C(=O)N[C@@H](CC(=O)O)C(=O)N[C@@H](CCCNC(=N)N)C(=O)NC` has a relative potency of 57.2 (GH release; male rat, serum; subcutaneous, dose not given, 15 min; reference: GHRH(1-29)NH2).
`CNC1CCC(N(Cc2cccc(-c3ccncc3)c2)C(=O)c2sc3ccccc3c2Cl)CC1` (stereo not shown) — result for “concentration abolishing Pax7”: 1 to 10 nM (chick neural plate explants; 22 h).
`CC[C@H](C)[C@@H]1NC(=O)[C@H](Cc2ccc(O)cc2)NC(=O)[C@@H](N)CSSC[C@@H](C(=O)NCC(=O)N[C@@H](CCCCNC(=O)COCCOCCNC(=O)COCCOCCNC(=O)CC[C@H](NC(=O)CC[C@H](NC(=O)CCCCCCCCCCCCCCCCC(=O)O)C(=O)O)C(=O)O)C(=O)NCC(N)=O)NC(=O)[C@H](CC(N)=O)NC(=O)[C@H](CCC(N)=O)NC1=O`: “food intake suppression” 14% (C57BL/6 mice, diet-induced obese; subcutaneous, 2 µmol/kg daily; reference: vehicle).
`O=C1c2c(cc(O)c3c2oc2cc(O)c(O)cc23)OC1Cc1ccc(O)c(O)c1` (stereo not shown) has an EC50 of 880 µM (ABTS scavenging, absorbance).
Under “Evans blue tumour permeation increase”, `N=C(N)NCCC[C@@H](N)C(=O)NCC(=O)N[C@H](CCC(=O)O)C(=O)N[C@H](CCCNC(=N)N)C(=O)N1CCC[C@@H]1C(=O)N1CCC[C@@H]1C(=O)N[C@H](CCCNC(=N)N)C(N)=O` is recorded as 46.4% (nude mouse A549 subcutaneous tumour; intravenous, 4 µmol/kg, 30 min, added: Evans blue 1 mg intravenous; reference: PBS control).
`CCC(=O)N1CCN(c2ccc(N(C)C(=O)C(C)(C)c3cc(C(F)(F)F)cc(C(F)(F)F)c3)c(-c3ccccc3C)c2)CC1`: “duration of inhibition” no less than 8 h (mechanical allodynia, antagonist, von Frey test; hNK1R-407 mice; intrathecal, 5 µL, 100 nM, added: capsaicin).
For `C[C@@H](O)[C@@H]1NC(=O)[C@H](CCCCN)NC(=O)[C@@H](Cc2ccc(NC(N)=O)cc2)NC(=O)[C@H](Cc2ccc(NC(=O)[C@@H]3CC(=O)NC(=O)N3)cc2)NC(=O)[C@H](NC(=O)[C@H](Cc2ccc(Cl)cc2)NC(=O)CN2CCN(CC(=O)O)CCN(CC(=O)O)CCN(CC(=O)O)CC2)CSSC[C@@H](C(=O)N[C@H](Cc2ccc(O)cc2)C(N)=O)NC1=O` [gallium-68 labelled], “median lesion SUVpeak” read 10 (PET/CT; neuroendocrine tumour patients, lesions; 60 min post-injection).
`CCCC[C@H](NC(=O)[C@@H](NC(=O)[C@H](CC(=O)O)NC(=O)[C@H](CCC(N)=O)NC(=O)[C@H](CC(C)C)NC(=O)[C@H](CC(C)C)NC(=O)[C@H](CCCN)NC(=O)[C@H](CCCNC(=N)N)NC(=O)[C@H](C)NC(=O)[C@H](CO)NC(=O)[C@H](CC(C)C)NC(=O)[C@H](CCC(N)=O)NC(=O)[C@H](CC)NC(=O)[C@H](CC(C)C)NC(=O)[C@@H](NC(=O)[C@H](CCCN)NC(=O)[C@H](CCCNC(=N)N)NC(=O)[C@H](Cc1ccc(O)cc1)NC(=O)[C@H](CO)NC(=O)[C@H](CC(N)=O)NC(=O)[C@@H](NC(=O)[C@H](Cc1c(F)c(F)c(F)c(F)c1F)NC(=O)[C@@H](NC(=O)[C@H](C)NC(=O)[C@H](CC(=O)O)NC(=O)[C@@H](C)NC(=O)CCc1ccc(O)cc1)[C@@H](C)CC)[C@@H](C)O)C(C)C)[C@@H](C)CC)C(=O)N[C@@H](CO)C(=O)N[C@@H](CCCNC(=N)N)C(=O)NCCCC(N)=O` has a relative potency of 152 (GH release; male rat, serum; subcutaneous, dose not given, 30 min; reference: GHRH(1-29)NH2).
`Cc1nc2c(cnn2C(C)C)cc1C(=O)NCc1ccc(C(C)O)c(C)n1` (stereo not shown) gave an effective concentration of 10 nM (larval locomotion; Drosophila melanogaster Tip60 RNAi larvae; oral in food).
With `N=C(N)NCCC[C@H](NC(=O)[C@@H]1CCCN1C(=O)[C@@H]1CSSCCC(=O)N[C@]2(CC[C@@H](c3ccccc3)CC2)C(=O)N[C@@H](Cc2ccccc2)C(=O)N[C@@H](CCC(N)=O)C(=O)N[C@@H](CC(N)=O)C(=O)N1)C(=O)NCC(N)=O` the antidiuretic activity was 45 IU/mg (conscious male rat; subcutaneous, dose not given; reference: AVP 465 IU/mg).

A few entries again:
Under “Evans blue tumour permeation increase”, `N=C(N)NCCC[C@@H](N)C(=O)NCC(=O)N[C@H](CCC(=O)O)C(=O)N[C@H](CCCNC(=N)N)C(=O)N1CCC[C@@H]1C(=O)N1CCC[C@@H]1C(=O)N[C@H](CCCNC(=N)N)C(N)=O` is recorded as 46.4% (nude mouse A549 subcutaneous tumour; intravenous, 4 µmol/kg, 30 min, added: Evans blue 1 mg intravenous; reference: PBS control).
